Assay results of several laboratories.
Values after ≈ are worked out from the molar mass of the structure shown.

CN1CC23C4C=CC5C4C4C2C=CC4C53C1  EC50 (Influenza A virus; viral replication; A/Ishikawa/7/82 (H3N2)): > 100 µM
C=CCn1cnc2c(NCc3ccc(C)s3)nc(N[C@H](CC)CO)nc21  tail current integral (Cav2.1 calcium channel; perforated patch clamp; HEK293 transfected; 50 µM, 100 ms before depolarisation, holding -100 mV; reference: maximum): > 70%
CCC1(CC)C2CC3CC(C2)CC1(N)C3  EC50 (Influenza A virus; viral replication; MDCK, A/FM/1/47 (H1N1)): 7 µM
Nc1ccc(/C=C/C(=O)N2CCc3c(oc4c(-c5ccc(F)cc5)cc(-c5ccc(C(=O)N6CCC(F)(F)CC6)cn5)cc34)C2)cn1  dendritic cells and macrophages (mice, Pan02 allograft, tumour; 100 mg/kg): increased
CCCCCCCCC(=O)NCc1ccc(O)c(OC)c1  IC50 (mouse mAb 1-F12; antibody binding, indirect competitive ELISA; together with: coating antigen 1-OVA): 252 ng/mL (≈ 0.857 µM)
COC[C@@H](NC(C)=O)C(=O)NCc1ccc(N=[N+]=[N-])cc1  slow-inactivated channels (voltage-gated sodium channel; inhibitor, whole-cell patch clamp; CAD; 40 µM, holding potential -50 mV, together with: UV irradiation 312 nm 5 min): ~45%
CCN(Cc1ccccc1)C(=O)CCc1nc(CN2CCN(C(=O)Cc3ccc(OC)c(OC)c3)CC2)no1  onset day (cold withdrawal threshold, cold plate; mouse CCI model; 20 mg/kg, 4 °C, dosing from day 11): 11 days
CC[C@H](C)[C@H](NC(=O)[C@@H](NC(=O)[C@H](CC(=O)O)NC(C)=O)[C@@H](C)O)C(=O)N[C@@H](CCCNC(=N)N)C(=O)N[C@@H](CC(C)C)C(=O)N[C@@H](CC(C)C)C(=O)N[C@@H](Cc1ccccc1)C(=O)N[C@@H](CCC(N)=O)C(=O)N[C@@H](CC(C)C)C(=O)N[C@@H](CCSC)C(=O)N[C@@H](CCCNC(=N)N)C(=O)N1CCC[C@H]1C(=O)N1CCC[C@H]1C(=O)N[C@@H](CC(N)=O)C(=O)N[C@@H](CCSC)C(=O)N[C@H](C(=O)N1CCC[C@H]1C(=O)N[C@@H](C)C(=O)N[C@H](C(=O)N[C@@H](CC(N)=O)C(=O)N[C@@H](C)C(N)=O)C(C)C)[C@@H](C)O  α4β7+ CCR9− cells (refers to: HA-41 tetramer; antigen-experienced tetramer+ CD4 T cells, healthy adults, HLA-DRB1*0101; dose not given): 50%
CCCCCc1cc(O)c2c(c1)OC(C)(C)C1CCC(C)=CC21 (centres unmarked)  intraocular pressure (rabbit, α-chymotrypsin glaucoma model; topical, 50 µL of 0.5% w/v, 1 h; reference: baseline): 89.2%
CN1CC23C4CCC5C4C4C2CCC4C53C1  EC50 (Influenza A virus; viral replication; MDCK, H3N2 A/HK/7/87): > 100 µM
CCCCCCCCCCCCCC(=O)NCC(=O)N[C@@H](CCCNC(=N)N)C(=O)N[C@@H](Cc1c[nH]c2ccccc12)C(=O)N[C@@H](CCCCN)C(=O)N[C@H](C(=O)N[C@@H](Cc1ccccc1)C(=O)N[C@@H](CCCCN)C(=O)N[C@@H](CCCCN)C(=O)N[C@H](C(=O)N[C@@H](CCC(=O)O)C(=O)N[C@@H](CCCCN)C(=O)N[C@H](C(=O)NCC(=O)N[C@@H](CCC(N)=O)C(=O)N[C@@H](CC(N)=O)C(=O)N[C@H](C(=O)N[C@@H](CCCNC(=N)N)C(=O)N[C@@H](CC(=O)O)C(=O)NCC(=O)N[C@H](C(=O)N[C@H](C(=O)N[C@@H](CCCCN)C(=O)N[C@@H](C)C(=O)NCC(=O)N1CCC[C@H]1C(=O)N[C@@H](C)C(=O)N[C@H](C(=O)N[C@@H](C)C(=O)N[C@H](C(=O)N[C@H](C(=O)NCC(=O)N[C@@H](CCC(N)=O)C(=O)N[C@@H](C)C(=O)N[C@@H](C)C(=O)N[C@H](C(=O)N[C@H](C(N)=O)[C@@H](C)CC)[C@@H](C)O)C(C)C)C(C)C)C(C)C)C(C)C)[C@@H](C)CC)[C@@H](C)CC)C(C)C)[C@@H](C)CC)[C@@H](C)CC  cleaved PARP (K562/MDR; western blot; 2 µM, 16 h): > 40%

Some of these lines once more:
CN1CC23C4CCC5C4C4C2CCC4C53C1  EC50 (Influenza A virus; viral replication; MDCK, H3N2 A/HK/7/87): > 100 µM
CCCCCCCCCCCCCC(=O)NCC(=O)N[C@@H](CCCNC(=N)N)C(=O)N[C@@H](Cc1c[nH]c2ccccc12)C(=O)N[C@@H](CCCCN)C(=O)N[C@H](C(=O)N[C@@H](Cc1ccccc1)C(=O)N[C@@H](CCCCN)C(=O)N[C@@H](CCCCN)C(=O)N[C@H](C(=O)N[C@@H](CCC(=O)O)C(=O)N[C@@H](CCCCN)C(=O)N[C@H](C(=O)NCC(=O)N[C@@H](CCC(N)=O)C(=O)N[C@@H](CC(N)=O)C(=O)N[C@H](C(=O)N[C@@H](CCCNC(=N)N)C(=O)N[C@@H](CC(=O)O)C(=O)NCC(=O)N[C@H](C(=O)N[C@H](C(=O)N[C@@H](CCCCN)C(=O)N[C@@H](C)C(=O)NCC(=O)N1CCC[C@H]1C(=O)N[C@@H](C)C(=O)N[C@H](C(=O)N[C@@H](C)C(=O)N[C@H](C(=O)N[C@H](C(=O)NCC(=O)N[C@@H](CCC(N)=O)C(=O)N[C@@H](C)C(=O)N[C@@H](C)C(=O)N[C@H](C(=O)N[C@H](C(N)=O)[C@@H](C)CC)[C@@H](C)O)C(C)C)C(C)C)C(C)C)C(C)C)[C@@H](C)CC)[C@@H](C)CC)C(C)C)[C@@H](C)CC)[C@@H](C)CC  cleaved PARP (K562/MDR; western blot; 2 µM, 16 h): > 40%
